Results from different studies.
Parts stem from different laboratories: compare values within a part only.

Study 1 — technique: RNAcompete; form: RNA; sample: in vitro; concentration: 20 nM; setting: 7-mer, probes averaged, single round; reference: mean of 7-mers; direction: higher = stronger binding
Target: PABPC1L2, full length, GST fusion (mouse, UniProt A0ABA7IW68)
Construct (chain): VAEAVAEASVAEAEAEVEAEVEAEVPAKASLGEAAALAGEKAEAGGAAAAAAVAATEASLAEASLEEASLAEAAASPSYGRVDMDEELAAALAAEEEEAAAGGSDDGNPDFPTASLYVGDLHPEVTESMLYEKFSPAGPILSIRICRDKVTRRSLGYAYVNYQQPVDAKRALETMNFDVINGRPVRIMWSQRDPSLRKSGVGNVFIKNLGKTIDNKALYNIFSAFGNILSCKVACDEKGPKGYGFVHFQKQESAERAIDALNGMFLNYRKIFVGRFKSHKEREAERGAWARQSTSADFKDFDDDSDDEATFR
Strand | 7-mer Z-score
ACGGUAA | 0.108
UGACUUA | -0.249
ACUAGUC | -0.325
GGUCAUA | 0.0714
GUUCAAU | -0.133

Study 2 — technique: RNA Bind-n-Seq; form: RNA; sample: in vitro; concentration: 365 nM; reference: no-protein control; direction: higher = stronger binding
Target: RNA binding protein fox-1 homolog 2, RRM domain, GST-SBP tag (RBFOX2, Homo sapiens, UniProt O43251-10, residues 100-194)
Setting: natural RNA segment, single round, ends assumed
Shared flanks, not repeated: GGGAGUUCUACAGUCCGACGAUC … UGGAAUUCUCGGGUGCCAA
Strand | RBNS enrichment (R)
GUAAGUUCAUGUAUAUAAUAUGUUUACAUGUUUCACUUUGAACUGAAAGCUACUCAAAGCCAGCCGUAAGUCUAUGGUAGAAUGUGAUGGAACAUGUUGGUGGAAGCUUG | 2.3
GCCUGCCCACCCUUCGCACAUACACCCGUGGCAGGGAGUGUGGAACUGAAGACUGGCUGGAGGCACUGCAGAAGCAGCCCUUGGCUUUCUACUCCCACACUUGCUUGUGA | 0.811
CUUAAAGCAUUAAAAAUGCUUAUUAAUAACUUUGGUCAUUUAAAAAAUGCUACAAUGACUUCCUAUUAAAGGUUCAAUAUUUACACAUUCUUAUUGGUUGAUAUUACCAC | 0.457
UUGGCCACUGAGCCCUGUCUCCCUUCUUCUUCUGCACAGGCUGGGGCUGCGGGCCAGUGCCUGCGCAUGUUUGUGCCUCUCCCCUCUCCUUGGGCAGGCCCUGGGUAGGA | 1.92
AAUAUUGACCUAACUAACUUGAAUGUCUCAUAUGAUGAAUCAAUAAACUAUGUGCACAUAGCUUUGAUGUUGGUUUCUUGUGUCAUUUGUAGGGGUUUUGUUUUGAAGUU | 0.434

Study 3 — technique: protein-binding microarray; form: double-stranded DNA, one strand shown; sample: in vitro; concentration: not given; direction: higher = stronger binding
Target: Max-binding protein MNT, bHLH-zipper, MAX partner unstated (MNT, Homo sapiens, UniProt Q99583, residues 220-300)
Setting: k-mer, scored over probes, only values ≥0.25
Construct (chain): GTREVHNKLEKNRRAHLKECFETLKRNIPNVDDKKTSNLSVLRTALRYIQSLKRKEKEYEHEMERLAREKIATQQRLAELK
Strand | E-score
ACGTTCCA | 0.301
CCGCGCAC | 0.258
CGTGCCCC | 0.371
CCTACACG | 0.306
GGAACGCA | 0.301

Further values, each from its own experiment
Molecule | target | assay | test system | setting | scale | measurement | result
PhoQ, residues 284 288 289 292 302 303 SNGLAW | PhoP, residues 12 14 15 18 19 SQCLL (Escherichia coli, UniProt P23836) | Sort-seq, measured: YFP reporter | E. coli | PhoQ-PhoP variant library, together with: 10 µM Mg2+ | reference: high Mg2+ state, higher = stronger signaling | fold induction | 8.28

Excerpt of the above (study 2):
Strand | RBNS enrichment (R)
CUUAAAGCAUUAAAAAUGCUUAUUAAUAACUUUGGUCAUUUAAAAAAUGCUACAAUGACUUCCUAUUAAAGGUUCAAUAUUUACACAUUCUUAUUGGUUGAUAUUACCAC | 0.457
GCCUGCCCACCCUUCGCACAUACACCCGUGGCAGGGAGUGUGGAACUGAAGACUGGCUGGAGGCACUGCAGAAGCAGCCCUUGGCUUUCUACUCCCACACUUGCUUGUGA | 0.811
